Assay results of several laboratories.
Protocols differ between the studies behind these lines. “And” joins repeats or separate records; there may be more than shown. ± marks the error that the study gave.
GLP1R: Glucagon-like peptide 1 receptor (GLP1R, Homo sapiens, UniProt P43220)
Chain of UniProt P43220 (whole entry, looked up): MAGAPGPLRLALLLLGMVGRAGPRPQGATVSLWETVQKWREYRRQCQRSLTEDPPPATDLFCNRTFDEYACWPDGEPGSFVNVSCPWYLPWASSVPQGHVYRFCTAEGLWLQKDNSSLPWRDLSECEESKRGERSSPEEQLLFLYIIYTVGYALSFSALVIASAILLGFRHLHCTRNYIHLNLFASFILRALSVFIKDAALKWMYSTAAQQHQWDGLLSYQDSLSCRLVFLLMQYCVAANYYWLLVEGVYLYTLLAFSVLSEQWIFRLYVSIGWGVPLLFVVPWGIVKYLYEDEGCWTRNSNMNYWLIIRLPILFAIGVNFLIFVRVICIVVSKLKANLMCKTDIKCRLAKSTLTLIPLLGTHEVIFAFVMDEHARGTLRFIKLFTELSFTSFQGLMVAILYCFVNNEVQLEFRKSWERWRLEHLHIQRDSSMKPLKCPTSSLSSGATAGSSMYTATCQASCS
Ugcg: Ceramide glucosyltransferase (Ugcg, Mus musculus, UniProt O88693)
Chain of UniProt O88693 (whole entry, looked up): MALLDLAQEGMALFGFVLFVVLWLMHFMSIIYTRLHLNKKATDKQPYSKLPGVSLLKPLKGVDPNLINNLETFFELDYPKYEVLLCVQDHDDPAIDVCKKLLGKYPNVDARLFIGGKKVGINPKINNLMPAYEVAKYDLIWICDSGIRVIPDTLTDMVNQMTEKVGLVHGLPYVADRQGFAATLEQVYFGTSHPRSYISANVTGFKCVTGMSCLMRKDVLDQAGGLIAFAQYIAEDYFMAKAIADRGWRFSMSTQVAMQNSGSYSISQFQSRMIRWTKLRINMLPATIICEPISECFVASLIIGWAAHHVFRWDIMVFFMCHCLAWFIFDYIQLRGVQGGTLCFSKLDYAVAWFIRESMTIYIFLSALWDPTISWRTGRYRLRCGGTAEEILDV
Lysophospholipase-like protein 1: Lysophospholipase-like protein 1 (Mus musculus, UniProt Q3UFF7)
Chain of UniProt Q3UFF7 (whole entry, looked up): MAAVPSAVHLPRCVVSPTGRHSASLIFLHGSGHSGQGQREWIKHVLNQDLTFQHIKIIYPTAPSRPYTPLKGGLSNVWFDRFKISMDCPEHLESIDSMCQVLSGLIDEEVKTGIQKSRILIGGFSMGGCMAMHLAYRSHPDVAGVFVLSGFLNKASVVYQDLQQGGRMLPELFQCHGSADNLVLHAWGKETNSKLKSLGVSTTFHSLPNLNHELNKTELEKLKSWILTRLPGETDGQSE
Chain of UniProt O49686 (whole entry, looked up): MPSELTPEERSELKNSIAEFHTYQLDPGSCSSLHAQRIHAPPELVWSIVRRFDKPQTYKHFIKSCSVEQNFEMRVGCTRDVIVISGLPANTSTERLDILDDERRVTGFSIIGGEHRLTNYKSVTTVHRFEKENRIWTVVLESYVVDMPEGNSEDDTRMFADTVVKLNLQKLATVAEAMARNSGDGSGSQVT
Chain of UniProt P35414 (whole entry, looked up): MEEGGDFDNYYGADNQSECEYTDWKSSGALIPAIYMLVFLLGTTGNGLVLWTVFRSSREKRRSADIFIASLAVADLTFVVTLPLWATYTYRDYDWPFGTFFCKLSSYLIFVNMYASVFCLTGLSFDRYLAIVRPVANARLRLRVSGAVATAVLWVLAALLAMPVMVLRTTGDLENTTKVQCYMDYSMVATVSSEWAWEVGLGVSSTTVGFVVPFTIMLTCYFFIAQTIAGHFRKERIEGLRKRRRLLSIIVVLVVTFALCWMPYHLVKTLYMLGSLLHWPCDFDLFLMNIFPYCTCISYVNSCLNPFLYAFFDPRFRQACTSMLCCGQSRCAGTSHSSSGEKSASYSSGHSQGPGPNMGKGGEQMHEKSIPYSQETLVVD
Chain of UniProt P35869 (whole entry, looked up): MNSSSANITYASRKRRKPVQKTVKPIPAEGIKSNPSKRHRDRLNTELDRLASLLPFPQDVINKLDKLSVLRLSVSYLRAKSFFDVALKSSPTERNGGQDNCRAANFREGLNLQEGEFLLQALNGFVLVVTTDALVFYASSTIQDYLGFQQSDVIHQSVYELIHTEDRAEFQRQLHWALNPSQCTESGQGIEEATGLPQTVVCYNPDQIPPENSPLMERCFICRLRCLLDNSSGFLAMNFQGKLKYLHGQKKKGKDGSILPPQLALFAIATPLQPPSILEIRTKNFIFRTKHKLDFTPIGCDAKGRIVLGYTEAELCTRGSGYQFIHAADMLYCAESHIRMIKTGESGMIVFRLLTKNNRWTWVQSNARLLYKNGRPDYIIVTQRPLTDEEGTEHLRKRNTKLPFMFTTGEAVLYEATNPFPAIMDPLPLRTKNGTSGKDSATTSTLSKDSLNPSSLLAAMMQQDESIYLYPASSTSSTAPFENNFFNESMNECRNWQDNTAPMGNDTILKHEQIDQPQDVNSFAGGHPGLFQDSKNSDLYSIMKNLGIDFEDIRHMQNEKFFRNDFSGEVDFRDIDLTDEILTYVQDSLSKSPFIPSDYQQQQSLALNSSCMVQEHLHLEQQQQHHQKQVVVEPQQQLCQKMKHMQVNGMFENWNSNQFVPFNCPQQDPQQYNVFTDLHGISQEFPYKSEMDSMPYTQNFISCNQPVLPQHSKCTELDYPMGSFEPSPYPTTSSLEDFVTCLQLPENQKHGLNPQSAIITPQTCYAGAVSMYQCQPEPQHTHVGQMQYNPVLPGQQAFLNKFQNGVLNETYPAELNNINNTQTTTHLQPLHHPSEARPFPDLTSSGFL
Chain of UniProt O75762 (whole entry, unmodified, looked up): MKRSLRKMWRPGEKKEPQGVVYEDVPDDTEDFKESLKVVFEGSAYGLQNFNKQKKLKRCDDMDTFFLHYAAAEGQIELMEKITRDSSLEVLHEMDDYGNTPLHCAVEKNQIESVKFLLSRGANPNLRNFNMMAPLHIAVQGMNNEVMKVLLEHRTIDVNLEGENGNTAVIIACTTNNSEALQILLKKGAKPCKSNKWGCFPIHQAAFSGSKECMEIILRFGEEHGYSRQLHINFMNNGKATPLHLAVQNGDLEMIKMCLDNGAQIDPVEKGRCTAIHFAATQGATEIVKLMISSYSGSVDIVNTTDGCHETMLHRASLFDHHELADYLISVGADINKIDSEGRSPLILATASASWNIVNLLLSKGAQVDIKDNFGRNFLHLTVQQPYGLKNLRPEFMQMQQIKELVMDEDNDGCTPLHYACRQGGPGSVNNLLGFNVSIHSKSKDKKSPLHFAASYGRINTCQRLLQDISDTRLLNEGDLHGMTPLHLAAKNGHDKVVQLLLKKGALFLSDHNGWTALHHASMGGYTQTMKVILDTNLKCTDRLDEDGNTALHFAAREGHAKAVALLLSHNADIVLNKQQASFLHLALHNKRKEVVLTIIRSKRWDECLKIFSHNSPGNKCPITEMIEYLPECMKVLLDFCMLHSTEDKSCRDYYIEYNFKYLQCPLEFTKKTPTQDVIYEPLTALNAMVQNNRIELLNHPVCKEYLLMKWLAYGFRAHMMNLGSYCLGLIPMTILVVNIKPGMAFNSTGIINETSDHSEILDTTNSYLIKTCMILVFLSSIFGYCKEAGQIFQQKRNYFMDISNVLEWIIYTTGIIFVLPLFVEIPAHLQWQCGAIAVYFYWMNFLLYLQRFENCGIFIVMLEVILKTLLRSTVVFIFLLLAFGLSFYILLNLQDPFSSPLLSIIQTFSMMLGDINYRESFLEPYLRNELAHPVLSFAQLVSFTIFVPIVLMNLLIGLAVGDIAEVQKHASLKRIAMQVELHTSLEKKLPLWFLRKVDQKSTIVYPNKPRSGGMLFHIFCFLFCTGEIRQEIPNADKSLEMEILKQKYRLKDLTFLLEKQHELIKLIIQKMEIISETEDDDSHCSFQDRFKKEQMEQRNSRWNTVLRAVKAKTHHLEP
Chain of UniProt P0DMS8 (whole entry, unmodified, looked up): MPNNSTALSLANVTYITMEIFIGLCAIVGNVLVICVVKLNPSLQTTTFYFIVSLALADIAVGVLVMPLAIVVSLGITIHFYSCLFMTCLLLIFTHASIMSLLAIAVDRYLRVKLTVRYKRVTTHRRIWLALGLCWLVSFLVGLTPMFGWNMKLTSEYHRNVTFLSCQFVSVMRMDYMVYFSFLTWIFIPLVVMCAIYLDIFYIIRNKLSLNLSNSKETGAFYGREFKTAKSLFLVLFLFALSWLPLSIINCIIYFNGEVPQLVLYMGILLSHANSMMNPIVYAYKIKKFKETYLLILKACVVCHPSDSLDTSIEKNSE
Chain of UniProt Q9H228 (whole entry, looked up): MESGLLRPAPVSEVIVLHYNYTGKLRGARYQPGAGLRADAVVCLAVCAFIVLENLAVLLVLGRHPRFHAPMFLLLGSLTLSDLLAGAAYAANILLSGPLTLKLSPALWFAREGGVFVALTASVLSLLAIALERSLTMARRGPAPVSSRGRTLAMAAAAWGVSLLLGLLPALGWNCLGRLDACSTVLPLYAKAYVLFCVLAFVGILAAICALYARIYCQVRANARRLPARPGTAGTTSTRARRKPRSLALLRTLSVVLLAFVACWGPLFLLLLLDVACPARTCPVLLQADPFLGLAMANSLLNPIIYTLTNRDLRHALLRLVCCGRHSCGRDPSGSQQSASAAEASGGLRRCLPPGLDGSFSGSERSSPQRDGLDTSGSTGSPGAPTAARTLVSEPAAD
Chain of UniProt O60895 (whole entry, looked up): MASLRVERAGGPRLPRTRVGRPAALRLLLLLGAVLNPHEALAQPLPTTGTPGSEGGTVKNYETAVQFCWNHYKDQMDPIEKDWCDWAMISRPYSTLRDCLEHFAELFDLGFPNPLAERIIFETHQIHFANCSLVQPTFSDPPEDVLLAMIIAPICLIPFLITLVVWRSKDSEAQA
Chain of UniProt P25103 (whole entry, looked up): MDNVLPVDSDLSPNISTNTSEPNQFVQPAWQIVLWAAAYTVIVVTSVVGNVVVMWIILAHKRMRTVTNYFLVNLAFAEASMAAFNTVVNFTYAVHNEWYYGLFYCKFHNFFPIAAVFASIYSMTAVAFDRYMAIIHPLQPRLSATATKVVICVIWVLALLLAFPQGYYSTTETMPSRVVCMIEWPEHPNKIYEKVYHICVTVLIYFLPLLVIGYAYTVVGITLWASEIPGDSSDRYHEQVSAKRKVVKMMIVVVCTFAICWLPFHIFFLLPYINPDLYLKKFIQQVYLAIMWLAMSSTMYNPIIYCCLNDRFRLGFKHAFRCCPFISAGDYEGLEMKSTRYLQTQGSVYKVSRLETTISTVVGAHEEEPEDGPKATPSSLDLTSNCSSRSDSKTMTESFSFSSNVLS

SMILES | target | test | test system | setting | quantity | value
CC(C)(Cn1cc(CNc2ccc(C(=O)NCCC(=O)O)cc2)nn1)c1ccc(Cl)cc1 | GLP1R | agonist | human cells |  | EC50 | 2710 nM
O=C(Cc1ccc(OCc2ccccc2)cc1)NC1(C(=O)O)CCN(C(=O)c2ccc(-c3cccc(Cl)c3)cc2)CC1 | S1PR5 (Homo sapiens, UniProt Q9H228) | cAMP, agonist, luciferase |  |  | EC50 | > 10000 nM
N#Cc1cccc(-c2ccc(COCCCCCN3C[C@H](O)[C@@H](O)[C@H](O)[C@H]3CO)cc2)c1 | Ugcg | enzyme activity, inhibitor, fluorescence |  |  | IC50 | 50 nM
Cc1nc2ccc(S(=O)(=O)n3nc(NCc4ccc(Cl)cc4)nc3N)cc2s1 | Lysophospholipase-like protein 1 | enzyme activity, activator, gel-based ABPP |  |  | EC50 | > 20000 nM
CNc1ncnc2c1ncn2C1OC(CO)C(O)C1O (stereo not drawn) | ADORA3 (Homo sapiens, UniProt P0DMS8, V169A) | G protein activation, agonist |  |  | EC50 | 18 nM
CC[C@H](C)[C@H](NC(=O)[C@H](Cc1ccccc1)NC(=O)[C@H](CCC(=O)O)NC(=O)[C@H](CCCCN)NC(=O)[C@H](C)NC(=O)[C@H](C)NC(=O)[C@H](CCC(N)=O)NC(=O)CNC(=O)[C@H](CCC(=O)O)NC(=O)[C@H](CC(C)C)NC(=O)[C@H](Cc1ccc(O)cc1)NC(=O)[C@H](CO)NC(=O)[C@H](CO)NC(=O)[C@@H](NC(=O)[C@H](CC(=O)O)NC(=O)[C@H](CO)NC(=O)[C@@H](NC(=O)[C@H](Cc1ccccc1)NC(=O)[C@@H](NC(=O)CNC(=O)[C@H](CCC(=O)O)NC(=O)[C@H](C)NC(=O)[C@H](Cc1c[nH]cn1)NCc1ccc(C2(C(F)(F)F)N=N2)cc1)[C@@H](C)O)[C@@H](C)O)C(C)C)C(=O)N[C@@H](C)C(=O)N[C@@H](Cc1c[nH]c2ccccc12)C(=O)N[C@@H](CC(C)C)C(=O)N[C@H](C(=O)N[C@@H](CCCCN)C(=O)NCC(=O)N[C@@H](CCCNC(=N)N)C(N)=O)C(C)C | GLP1R | reporter gene, agonist, luciferase |  |  | EC50 | 0.0398 nM and 0.042 nM
COc1ccc(C(=O)c2c(C(=O)NCCCN(C)C)oc3ccc(Cl)cc3c2=O)cc1OC | GHSR (Homo sapiens, UniProt Q92847) | endosomal trafficking, bystander BRET |  | 60 min | EC50 | 126 nM
COc1cc(C2C(NC(=O)c3ccc(NC(=O)OC(C)(C)C)cc3)(C(=O)O)C(c3ccc(OC(=O)c4cccs4)c(OC)c3)C2(NC(=O)c2ccc(NC(=O)OC(C)(C)C)cc2)C(=O)O)ccc1OC(=O)c1cccs1 (stereo not drawn) | Glucagon-like peptide 1 receptor, with β-arrestin 2 (GLP1R, Homo sapiens, UniProt P43220) | β-arrestin 2 recruitment, agonist, BRET |  |  | EC50 | 22900 nM
CC1=NC(C)C(C)S1 (stereo not drawn) | uncharacterized protein (Bos taurus, UniProt E1BM68) | cAMP level, agonist, cAMP luminescence | HEK293 cells |  | EC50 | 126000 ± 13600 nM
CSCC[C@H](NC(=O)[C@H](CC(C)C)NC(=O)CNC(=O)[C@H](Cc1ccccc1)NC(=O)[C@H](Cc1ccccc1)NC(=O)[C@@H](N)CCC(N)=O)C(N)=O | TACR1 (Homo sapiens, UniProt P25103) | cAMP, agonist |  |  | EC50 | 3980 nM
CCC(CC)n1c(Cc2cccs2)nc2cc(C(=O)NC(CC(=O)O)CC(C)C)ccc21 (stereo not drawn) | Apelin receptor (APLNR, Homo sapiens, UniProt P35414) | cAMP, agonist, luciferase |  |  | EC50 | 10 nM
COC(=O)c1cccc(C(=O)c2n[nH]c3ccccc23)c1 | AHR (Homo sapiens, UniProt P35869) | reporter gene, agonist, luciferase |  |  | EC50 | 139 nM
[N-]=[N+]=Nc1c(C2CC2)cc(CC(=O)NC2(C(=O)O)CCCCC2)cc1C1CC1 | PYR1 (Arabidopsis thaliana, UniProt O49686) | phosphatase activity recovery, antagonist |  | with: HAB1, ABA 5000 nM | EC50 | 6960 ± 1630 nM
CC[C@H](C)[C@H](NC(=O)[C@H](Cc1ccccc1)NC(=O)[C@H](CCC(=O)O)NC(=O)[C@H](CCCCN)NC(=O)[C@H](C)NC(=O)[C@H](C)NC(=O)[C@H](CCC(N)=O)NC(=O)CNC(=O)[C@H](CCC(=O)O)NC(=O)[C@H](CC(C)C)NC(=O)[C@H](Cc1ccc(O)cc1)NC(=O)[C@H](CO)NC(=O)[C@H](CO)NC(=O)[C@@H](NC(=O)[C@H](CC(=O)O)NC(=O)[C@H](CO)NC(=O)[C@@H](NC(=O)[C@H](Cc1ccccc1)NC(=O)[C@@H](NC(=O)CNC(=O)[C@H](CCC(=O)O)NC(=O)[C@H](C)NC(=O)[C@H](Cc1c[nH]cn1)NCc1ccccc1)[C@@H](C)O)[C@@H](C)O)C(C)C)C(=O)N[C@@H](C)C(=O)N[C@@H](Cc1c[nH]c2ccccc12)C(=O)N[C@@H](CC(C)C)C(=O)N[C@H](C(=O)N[C@@H](CCCCN)C(=O)NCC(=O)N[C@@H](CCCNC(=N)N)C(N)=O)C(C)C | GLP1R | reporter gene, agonist, luciferase |  |  | EC50 | 0.00398 nM
CC(C)=CCC/C(C)=C/CC/C(C)=C/CN1C[C@H](O)[C@@H](O)[C@H](O)[C@H]1CO | Ugcg | enzyme activity, inhibitor, fluorescence |  |  | IC50 | 2900 nM
O=C(NC[C@@H](Cc1ccc(F)cc1)N1CCC(O)(C(F)(F)F)CC1)C1(c2ccc(Cl)cc2)CCCC1 | TRPA1 (Homo sapiens, UniProt O75762, V875M) |  |  |  | EC50 | 15 nM
CC[C@H](C)[C@H](NC(=O)[C@@H]1CCCN1C(=O)CNC(=O)[C@H](Cc1ccccc1)NC(=O)[C@H](CC(N)=O)NC(=O)[C@H](CC(N)=O)NC(=O)[C@H](CO)NC(=O)[C@H](CO)NC(=O)[C@H](Cc1c[nH]cn1)NC(=O)[C@H](CCCNC(=N)N)NC(=O)[C@H](CC(C)C)NC(=O)[C@H](Cc1ccccc1)NC(=O)[C@H](CCC(=O)O)NC(=O)[C@H](C)NC(=O)[C@H](CC(C)C)NC(=O)[C@H](CCCNC(=N)N)NC(=O)[C@H](CCC(N)=O)NC(=O)[C@@H](NC(=O)[C@H](C)NC(=O)[C@@H]1CSSC[C@H](NC(=O)[C@H](CCCCN)NC(=O)CC[C@H](NC(=O)CCCCCCCCCCCCCCCCCCC(=O)O)C(=O)O)C(=O)N[C@@H](CC(N)=O)C(=O)N[C@@H]([C@@H](C)O)C(=O)N[C@@H](C)C(=O)N[C@@H]([C@@H](C)O)C(=O)N1)[C@@H](C)O)C(=O)N[C@@H](CC(C)C)C(=O)N1CCC[C@H]1C(=O)N1CCC[C@H]1C(=O)N[C@H](C(=O)N[C@@H](CC(N)=O)C(=O)N[C@H](C(=O)NCC(=O)N[C@@H](CO)C(=O)N[C@@H](CC(N)=O)C(=O)N[C@H](C(=O)N1CCC[C@H]1C(N)=O)[C@@H](C)O)C(C)C)[C@@H](C)O | Adrenomedullin receptor AM1; CALCRL/RAMP2 (Homo sapiens, UniProt O60895+Q16602) | cAMP, agonist, TR-FRET |  |  | EC50 | > 100 nM
Nc1nc(NCc2ccc(Cl)cc2)nn1S(=O)(=O)C1CCCCC1 | Lysophospholipase-like protein 1 | enzyme activity, activator, gel-based ABPP |  |  | EC50 | > 20000 nM
CC(C)(Cn1cc(CNc2ccc(C(=O)NCCC(=O)O)cc2)nn1)c1c[nH]c2ccccc12 | GLP1R | agonist | human cells |  | EC50 | 1770 nM
Cc1nc2ccc(S(=O)(=O)n3nc(CCc4ccc(Cl)cc4)nc3N)cc2s1 | Lysophospholipase-like protein 1 | enzyme activity, activator, gel-based ABPP |  |  | EC50 | 2600 nM
CC[C@H](C)[C@H](NC(=O)[C@H](Cc1ccccc1)NC(=O)[C@H](CCC(=O)O)NC(=O)[C@H](CCCCN)NC(=O)[C@H](C)NC(=O)[C@H](C)NC(=O)[C@H](CCC(N)=O)NC(=O)CNC(=O)[C@H](CCC(=O)O)NC(=O)[C@H](CC(C)C)NC(=O)[C@H](Cc1ccc(O)cc1)NC(=O)[C@H](CO)NC(=O)[C@H](CO)NC(=O)[C@@H](NC(=O)[C@H](CC(=O)O)NC(=O)[C@H](CO)NC(=O)[C@@H](NC(=O)[C@H](Cc1ccccc1)NC(=O)[C@@H](NC(=O)CNC(=O)[C@H](CCC(=O)O)NC(=O)[C@H](C)NC(=O)[C@H](Cc1c[nH]cn1)NCC12CC3CC(CC(C3)C1)C2)[C@@H](C)O)[C@@H](C)O)C(C)C)C(=O)N[C@@H](C)C(=O)N[C@@H](Cc1c[nH]c2ccccc12)C(=O)N[C@@H](CC(C)C)C(=O)N[C@H](C(=O)N[C@@H](CCCCN)C(=O)NCC(=O)N[C@@H](CCCNC(=N)N)C(N)=O)C(C)C | GLP1R | reporter gene, agonist, luciferase |  |  | EC50 | 0.0065 nM
CC[C@H](C)[C@H](NC(=O)[C@@H](NC(=O)[C@H](CC(N)=O)NC(=O)[C@H](CC(=O)O)NC(=O)[C@H](CO)NC(=O)[C@H](CCCCN)NC(=O)[C@H](CCCCN)NC(=O)[C@H](CCC(=O)O)NC(=O)[C@H](CCCNC(=N)N)NC(=O)[C@H](CCCNC(=N)N)NC(=O)[C@H](C)NC(=O)[C@H](CC(C)C)NC(=O)[C@H](CC(C)C)NC(=O)[C@H](Cc1c[nH]c2ccccc12)NC(=O)[C@H](CCC(=O)O)NC(=O)[C@@H](NC(=O)[C@H](Cc1ccccc1)NC(=O)[C@H](CC(N)=O)NC(=O)[C@H](CCCCN)NC(=O)[C@H](CCCCN)NC(=O)[C@H](CC(C)C)NC(=O)[C@H](CCSC)NC(=O)[C@H](CC(N)=O)NC(=O)[C@H](CC(=O)O)NC(=O)[C@H](CCSC)NC(=O)[C@@H](NC(=O)[C@H](CCCNC(=N)N)NC(=O)[C@H](CO)NC(=O)[C@H](Cc1ccc(O)cc1)NC(=O)[C@H](CC(=O)O)NC(=O)[C@H](CO)NC(=O)[C@H](C)NC(=O)[C@H](CC(C)C)NC(=O)[C@@H](NC(=O)[C@H](C)NC(=O)[C@H](CCC(=O)O)NC(=O)[C@H](CO)NC(=O)[C@@H](N)Cc1ccc(O)cc1)[C@@H](C)O)[C@@H](C)O)C(C)C)C(C)C)C(=O)N[C@@H](CCC(=O)O)C(=O)N1CCC[C@H]1C(=O)N[C@@H](Cc1ccc(O)cc1)C(=O)O | GLP1R | reporter gene, agonist, CRE-luciferase reporter | HEK-293T | 12 h | EC50 | > 1000 nM
CC[C@H](C)[C@H](NC(=O)[C@H](Cc1ccccc1)NC(=O)[C@H](CCC(=O)O)NC(=O)[C@H](CCCCN)NC(=O)[C@H](C)NC(=O)[C@H](C)NC(=O)[C@H](CCC(N)=O)NC(=O)CNC(=O)[C@H](CCC(=O)O)NC(=O)[C@H](CC(C)C)NC(=O)[C@H](Cc1ccc(O)cc1)NC(=O)[C@H](CO)NC(=O)[C@H](CO)NC(=O)[C@@H](NC(=O)[C@H](CC(=O)O)NC(=O)[C@H](CO)NC(=O)[C@@H](NC(=O)[C@H](Cc1ccccc1)NC(=O)[C@@H](NC(=O)CNC(=O)[C@H](CCC(=O)O)NC(=O)[C@H](C)NC(=O)[C@H](Cc1c[nH]cn1)NCc1ccc(O)cc1)[C@@H](C)O)[C@@H](C)O)C(C)C)C(=O)N[C@@H](C)C(=O)N[C@@H](Cc1c[nH]c2ccccc12)C(=O)N[C@@H](CC(C)C)C(=O)N[C@H](C(=O)N[C@@H](CCCCN)C(=O)NCC(=O)N[C@@H](CCCNC(=N)N)C(N)=O)C(C)C | GLP1R | reporter gene, agonist, luciferase |  |  | EC50 | 0.002 nM and 0.0028 nM
CC(C)C[C@H](NC(=O)[C@H](Cc1ccccc1)NC(=O)[C@H](CCCNC(=N)N)NC(=O)[C@H](CCC(N)=O)NC(=O)[C@H](CC(C)C)NC(=O)C(C)(C)NC(=O)[C@H](C)NC(=O)[C@H](CCC(=O)O)NC(=O)[C@H](CCC(=O)O)NC(=O)[C@H](CCCCNC(=O)COCCOCCNC(=O)COCCOCCNC(=O)CC[C@H](NC(=O)CCCCCCCCCCCCCCCCCCC(=O)O)C(=O)O)NC(=O)[C@H](CC(C)C)NC(=O)[C@H](Cc1ccc(O)cc1)NC(=O)[C@H](CO)NC(=O)[C@@H](NC(=O)[C@H](CC(=O)O)NC(=O)[C@H](CO)NC(=O)[C@@H](NC(=O)[C@H](Cc1ccccc1)NC(=O)[C@@H](NC(=O)CNC(=O)[C@H](CCC(=O)O)NC(=O)C(C)(C)NC(=O)[C@@H](N)Cc1c[nH]cn1)[C@@H](C)O)[C@@H](C)O)C(C)C)C(=O)N[C@@H](CCC(=O)O)C(=O)N[C@@H](Cc1c[nH]cn1)C(=O)N[C@@H](CC(C)C)C(=O)N[C@H](C(N)=O)C(C)C | GLP1R | cAMP, agonist |  |  | EC50 | 0.018 nM

Excerpt of the above:
SMILES | target | test | test system | setting | quantity | value
CSCC[C@H](NC(=O)[C@H](CC(C)C)NC(=O)CNC(=O)[C@H](Cc1ccccc1)NC(=O)[C@H](Cc1ccccc1)NC(=O)[C@@H](N)CCC(N)=O)C(N)=O | TACR1 (Homo sapiens, UniProt P25103) | cAMP, agonist |  |  | EC50 | 3980 nM
CCC(CC)n1c(Cc2cccs2)nc2cc(C(=O)NC(CC(=O)O)CC(C)C)ccc21 (stereo not drawn) | Apelin receptor (APLNR, Homo sapiens, UniProt P35414) | cAMP, agonist, luciferase |  |  | EC50 | 10 nM
COC(=O)c1cccc(C(=O)c2n[nH]c3ccccc23)c1 | AHR (Homo sapiens, UniProt P35869) | reporter gene, agonist, luciferase |  |  | EC50 | 139 nM
[N-]=[N+]=Nc1c(C2CC2)cc(CC(=O)NC2(C(=O)O)CCCCC2)cc1C1CC1 | PYR1 (Arabidopsis thaliana, UniProt O49686) | phosphatase activity recovery, antagonist |  | with: HAB1, ABA 5000 nM | EC50 | 6960 ± 1630 nM
